Published values collected from several papers.
Lines come from different studies, so protocols differ.

Compound	tested on	test	system	conditions	scale	measurement	result
C/C(N)=N/C(=N\S(=O)(=O)c1ccc(C(F)(F)F)cc1)N1C[C@H](c2ccccc2)C(c2ccc(Cl)cc2)=N1	–	–	C57BL/6 mouse, male, lung	intravenous, 10 mg/kg	baseline: lung over plasma	tissue/plasma ratio	31
CC[C@H](C)[C@H](NC(=O)[C@H](CC(N)=O)NC(=O)[C@@H](N)CCSC)C(=O)N[C@@H](CCSC)C(=O)N[C@@H](CC(=O)O)C(=O)N[C@@H](Cc1ccccc1)C(=O)N[C@@H](CC(N)=O)C(=O)N[C@H](C(=O)N[C@@H](CCCCN)C(=O)N[C@@H](CCCCN)C(=O)N[C@@H](CC(C)C)C(=O)N[C@@H](C)C(=O)N[C@@H](C)C(=O)N[C@@H](CC(=O)O)C(=O)N[C@@H](C)C(=O)NCC(=O)N[C@H](C(=O)N[C@@H](Cc1c[nH]c2ccccc12)C(=O)N[C@@H](CC(C)C)C(=O)N[C@@H](CO)C(=O)N[C@@H](CCCNC(=N)N)C(=O)N[C@@H](C)C(=O)N[C@H](C(=O)N[C@@H](CCC(N)=O)C(=O)N[C@@H](Cc1ccccc1)C(=O)N[C@H](C(=O)N[C@@H](CCC(=O)O)C(=O)N[C@@H](CCC(=O)O)C(=O)N[C@@H](CCCCN)C(=O)N[C@@H](CC(C)C)C(=O)NCC(=O)N[C@@H](CCC(N)=O)C(=O)N[C@@H](C)C(N)=O)[C@@H](C)O)C(C)C)[C@@H](C)O)C(C)C	–	–	water	–	–	folding free energy	2.99 kcal/mol
COc1ccc2nc(-c3ccc(N(C)C)cc3)sc2c1	–	–	PBS	free dye	–	excitation maximum wavelength	343 nm
CC(C)=CCC1=C([O-])C(=O)c2ccccc2C1=O.CC(C)=CCC1=C([O-])C(=O)c2ccccc2C1=O.O.[Cu+2].c1ccc(-c2ccccn2)nc1	–	cyclic voltammetry	CH2Cl2	0.1 mM, together with: 0.1 M Bu4NPF6	baseline: Ag/AgCl (sat. KOH)	anodic peak potential	-1.45 V
O=C1NCC(COc2cccc3c(NCc4ccsc4)nc(Cl)nc23)O1 (stereo not drawn)	–	–	C57BL/6 mouse, heart	oral, 30 mg/kg, 0.5 h	baseline: heart over plasma	tissue/plasma ratio	< 0.196
Cc1ncsc1-c1ccc(C(C)NC(=O)C2CC(O)CN2C(=O)C(NC(=O)CCCCCCCCCCN2CCCC(Nc3ncc(Cl)c(Nc4ccccc4S(=O)(=O)C(C)C)n3)C2)C(C)(C)C)cc1 (stereo not drawn)	22Rv1	RNA-seq, item: NCOA5 mRNA	–	concentration not given	baseline: DMSO	log2 fold change	-1.09
CCCCCCCC/C=C\CCCCCCCCO[Si](CCCCN(C)C)(OCCCCCCCC/C=C\CCCCCCCC)OCCCCCCCC/C=C\CCCCCCCC	–	–	–	pH 5.5, formulated	–	zeta potential	3.61 mV
O=C(NNCc1ccccc1)C1(C(F)(F)F)CCC1	–	–	PBS	2 h, pH 7.4, 25 °C, 2% DMSO	–	solubility	366 µM
COC1CN([C@H]2CC[C@H]([C@@]3(C)Oc4c(Cl)cc(C(=O)NCc5c(SC)cc(C)[nH]c5=O)c(C)c4O3)CC2)C1	–	RNA-seq, item: SH3D19	human, whole blood	dose not given, 24 h	baseline: pretreatment baseline	log2 fold change	1.38
CCC(C(=O)Nc1ccc(C(N)=O)c(F)c1)n1cc(OC)c(-c2cc(Cl)ccc2-n2cc(C(F)(F)F)nn2)cc1=O (stereo not drawn)	–	–	male humans	oral, 25 mg, fasted	–	subjects with any adverse event	0%
C=C(NC(=O)c1csc(-c2nc3c(cc2O)-c2nc(cs2)C(=O)NC(C(C)O)C(=O)NC(=C(C)OC)c2nc(cs2)C(=O)NC2c4nc(cs4)C(=O)NC(COC(=O)c4c5c6c(cccc6n4O)COC(=O)C(OC4CC(C)(O)C(N(C)C)C(C)O4)C2OC5)c2nc-3cs2)n1)C(N)=O (stereo not drawn)	–	–	female Sprague-Dawley rat, plasma	intravenous, 2 mg/kg, single dose, infusion	–	Cmax	2890 ng/mL
COc1cccc(OC)c1-c1cc(C(=O)NC2(C(=O)O)C3CC4CC(C3)CC2C4)nn1-c1ccc(C(=O)N(C)CCCN(C)CCCN(C)C(=O)[C@H](CCCCNC(=O)[C@H](CC(C)C)NC(=O)C2OC2C(=O)O)NC(=O)CN2CCN(CC(=O)[O-])CCN(CC(=O)[O-])CCN(CC(=O)[O-])CC2)cc1C(C)C.[177Lu+3] (mixture of isomers)	–	–	mouse HT-29 xenograft	4 h, biodistribution	baseline: tumour over small intestine	tumour-to-small intestine ratio	8.5
Cc1cc2c(cc1O)C=C1C=CC(=O)C(C)(C)[C@H]1CC2	–	–	male Sprague-Dawley rat, plasma	oral, 20 mg/kg	–	AUC(0-t)	25.3 ng·h/mL
CN(C)S(=O)(=O)c1ccc(S(=O)(=O)N2CCC(n3c(=O)[nH]c4ccccc43)CC2)cc1	–	HPLC	Capmul MCM	24 h, 20 °C	–	solubility	10 µg/mL
CC[C@H](C)[C@@H]1NC(=O)[C@H](Cc2ccc(O)cc2)NC(=O)CCCSC[C@@H](C(=O)N(CC(=O)N[C@@H](CC(C)C)C(=O)NCC(N)=O)Cc2ccc(F)cc2)NC(=O)[C@H](CC(N)=O)NC(=O)[C@H](CCC(N)=O)NC1=O	–	–	healthy women, plasma	intranasal, 100 µg single dose	–	terminal half-life	1.99 h
